Measured values pooled from the literature.
Parts stem from different laboratories: compare values within a part only.
UniProt P51956, sequence (whole entry, looked up): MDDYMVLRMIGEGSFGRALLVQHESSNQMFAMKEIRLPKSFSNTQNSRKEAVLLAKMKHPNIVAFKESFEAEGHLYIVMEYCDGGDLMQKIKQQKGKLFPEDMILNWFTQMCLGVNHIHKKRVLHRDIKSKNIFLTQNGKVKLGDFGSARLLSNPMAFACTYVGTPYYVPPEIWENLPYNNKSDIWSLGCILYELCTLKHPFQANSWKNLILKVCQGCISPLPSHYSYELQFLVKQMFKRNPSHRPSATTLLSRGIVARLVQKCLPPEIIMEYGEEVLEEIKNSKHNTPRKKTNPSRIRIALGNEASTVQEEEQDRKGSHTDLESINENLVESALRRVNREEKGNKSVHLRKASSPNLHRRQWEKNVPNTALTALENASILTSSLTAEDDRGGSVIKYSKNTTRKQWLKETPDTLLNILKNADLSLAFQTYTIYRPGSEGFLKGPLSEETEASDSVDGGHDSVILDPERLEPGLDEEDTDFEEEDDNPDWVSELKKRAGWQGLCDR
UniProt P11362, sequence (whole entry, looked up): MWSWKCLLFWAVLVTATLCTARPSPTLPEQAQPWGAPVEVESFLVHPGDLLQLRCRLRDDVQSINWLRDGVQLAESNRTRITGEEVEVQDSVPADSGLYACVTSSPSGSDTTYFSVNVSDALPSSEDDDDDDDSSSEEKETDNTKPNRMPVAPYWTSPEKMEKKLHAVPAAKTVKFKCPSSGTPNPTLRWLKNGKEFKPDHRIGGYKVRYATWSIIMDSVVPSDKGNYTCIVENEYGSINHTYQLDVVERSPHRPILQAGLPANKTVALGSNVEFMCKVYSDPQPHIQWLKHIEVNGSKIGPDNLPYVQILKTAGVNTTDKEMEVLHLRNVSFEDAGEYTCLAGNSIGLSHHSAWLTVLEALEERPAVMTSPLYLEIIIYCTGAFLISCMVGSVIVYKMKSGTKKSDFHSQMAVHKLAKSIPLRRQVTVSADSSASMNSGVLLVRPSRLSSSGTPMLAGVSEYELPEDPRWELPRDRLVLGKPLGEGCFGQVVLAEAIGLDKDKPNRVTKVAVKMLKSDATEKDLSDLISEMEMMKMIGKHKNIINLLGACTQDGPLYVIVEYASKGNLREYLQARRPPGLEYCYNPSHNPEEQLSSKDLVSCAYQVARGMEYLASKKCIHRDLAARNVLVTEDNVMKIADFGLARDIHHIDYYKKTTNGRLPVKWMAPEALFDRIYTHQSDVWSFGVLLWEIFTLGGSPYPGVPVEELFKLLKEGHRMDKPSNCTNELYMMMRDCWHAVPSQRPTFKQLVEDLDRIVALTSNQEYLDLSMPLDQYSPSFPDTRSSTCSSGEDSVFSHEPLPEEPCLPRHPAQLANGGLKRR
UniProt Q56UN5, sequence (whole entry, looked up): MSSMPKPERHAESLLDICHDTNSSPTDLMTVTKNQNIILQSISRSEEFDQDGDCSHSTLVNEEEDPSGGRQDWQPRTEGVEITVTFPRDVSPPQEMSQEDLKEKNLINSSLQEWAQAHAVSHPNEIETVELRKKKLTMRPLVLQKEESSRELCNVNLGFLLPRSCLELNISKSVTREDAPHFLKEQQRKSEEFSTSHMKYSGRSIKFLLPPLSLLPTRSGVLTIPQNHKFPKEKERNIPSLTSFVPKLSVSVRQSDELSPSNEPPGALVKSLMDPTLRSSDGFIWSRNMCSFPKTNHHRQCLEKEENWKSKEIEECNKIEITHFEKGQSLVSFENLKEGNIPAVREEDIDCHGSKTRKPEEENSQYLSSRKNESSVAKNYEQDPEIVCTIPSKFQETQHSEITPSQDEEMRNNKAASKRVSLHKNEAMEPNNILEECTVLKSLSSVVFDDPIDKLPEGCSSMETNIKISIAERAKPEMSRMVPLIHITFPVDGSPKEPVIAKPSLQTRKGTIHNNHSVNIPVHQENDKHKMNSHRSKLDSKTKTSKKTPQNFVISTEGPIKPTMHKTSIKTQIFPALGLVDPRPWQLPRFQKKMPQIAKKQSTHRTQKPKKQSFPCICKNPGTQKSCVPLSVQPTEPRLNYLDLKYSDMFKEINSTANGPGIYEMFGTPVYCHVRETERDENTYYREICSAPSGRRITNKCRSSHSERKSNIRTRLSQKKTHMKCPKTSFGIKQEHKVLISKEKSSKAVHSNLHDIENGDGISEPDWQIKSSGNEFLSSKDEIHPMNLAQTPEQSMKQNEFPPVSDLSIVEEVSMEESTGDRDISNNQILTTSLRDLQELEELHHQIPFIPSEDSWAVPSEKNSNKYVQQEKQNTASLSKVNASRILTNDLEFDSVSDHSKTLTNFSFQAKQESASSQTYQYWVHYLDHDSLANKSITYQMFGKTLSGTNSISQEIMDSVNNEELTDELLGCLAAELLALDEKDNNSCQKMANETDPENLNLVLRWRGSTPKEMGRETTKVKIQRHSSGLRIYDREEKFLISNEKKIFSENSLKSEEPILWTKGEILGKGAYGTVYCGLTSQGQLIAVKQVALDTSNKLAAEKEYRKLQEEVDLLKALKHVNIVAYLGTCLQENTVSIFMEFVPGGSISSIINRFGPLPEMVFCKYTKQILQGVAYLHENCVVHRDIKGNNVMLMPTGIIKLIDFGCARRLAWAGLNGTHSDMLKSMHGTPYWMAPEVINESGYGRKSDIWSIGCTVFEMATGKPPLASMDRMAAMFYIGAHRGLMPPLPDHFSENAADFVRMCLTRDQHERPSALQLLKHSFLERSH
UniProt P36896, sequence (whole entry, looked up): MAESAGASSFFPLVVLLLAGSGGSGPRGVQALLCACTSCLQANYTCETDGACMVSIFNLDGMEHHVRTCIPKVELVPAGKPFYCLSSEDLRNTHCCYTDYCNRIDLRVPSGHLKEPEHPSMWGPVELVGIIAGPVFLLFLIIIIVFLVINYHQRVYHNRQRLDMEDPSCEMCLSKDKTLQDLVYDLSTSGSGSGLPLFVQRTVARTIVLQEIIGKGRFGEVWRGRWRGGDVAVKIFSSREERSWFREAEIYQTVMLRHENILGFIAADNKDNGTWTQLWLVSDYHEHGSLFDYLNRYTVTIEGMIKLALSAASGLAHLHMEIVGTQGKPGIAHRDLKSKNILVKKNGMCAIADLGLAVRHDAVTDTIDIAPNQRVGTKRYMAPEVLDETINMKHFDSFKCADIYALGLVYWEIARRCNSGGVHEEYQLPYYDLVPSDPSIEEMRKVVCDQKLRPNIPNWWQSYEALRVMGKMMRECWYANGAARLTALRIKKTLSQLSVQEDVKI

Sample 1
Target: Calcium/calmodulin-dependent protein kinase type II subunit alpha (CAMK2A, Homo sapiens, UniProt Q9UQM7)
UniProt Q9UQM7, sequence (whole entry, looked up): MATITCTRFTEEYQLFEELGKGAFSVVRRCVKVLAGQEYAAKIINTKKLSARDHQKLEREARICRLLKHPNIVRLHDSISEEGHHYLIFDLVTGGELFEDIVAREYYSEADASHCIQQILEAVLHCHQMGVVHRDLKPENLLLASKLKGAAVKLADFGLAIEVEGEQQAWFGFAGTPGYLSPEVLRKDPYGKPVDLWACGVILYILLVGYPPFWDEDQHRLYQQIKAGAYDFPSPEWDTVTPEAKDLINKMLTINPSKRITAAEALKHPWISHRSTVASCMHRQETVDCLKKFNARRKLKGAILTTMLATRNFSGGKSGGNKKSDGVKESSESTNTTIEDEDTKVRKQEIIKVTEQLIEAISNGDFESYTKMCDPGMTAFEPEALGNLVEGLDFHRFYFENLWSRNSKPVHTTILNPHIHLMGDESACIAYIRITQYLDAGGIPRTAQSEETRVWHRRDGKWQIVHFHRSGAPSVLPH
Effect on: enzyme activity
Action: inhibitor
Tested at: 10 µM
SMILES | inhibition
O=C(O)c1ccc(-n2nc(-c3ccccc3O)nc2-c2ccccc2O)cc1 | 4%
O=C(O)CCCCCCCCCCC(=O)O | -8%
N[C@H](C(=O)O)[C@H](O)c1ccc(O)c(O)c1 | -10%
CCCCc1nc(C)c(CC(=S)N(C)C)c(=O)n1Cc1ccc(-c2ccccc2-c2nnn[nH]2)cc1 | -13%
CC(C)CCC[C@@H](C)[C@H]1CC[C@H]2[C@@H]3C(=O)C=C4C[C@@H](O)CC[C@]4(C)[C@H]3CC[C@]12C | -12%
CC(=C(CCOC(=O)C(C)C)SSC(CCOC(=O)C(C)C)=C(C)N(C=O)Cc1cnc(C)nc1N)N(C=O)Cc1cnc(C)nc1N (stereo in doubt) | -3%
CCOC(=O)[C@H](CCc1ccccc1)N[C@@H](C)C(=O)N1C(=O)N(C)C[C@H]1C(=O)O | -1%
COc1ccc(-c2oc3c(CC=C(C)C)c(O)cc(O)c3c(=O)c2O)cc1 | -2%
C=C1C[C@@]23CC[C@H]4[C@@](C)(CCC[C@@]4(C)C(=O)O)[C@@H]2CC[C@]1(O[C@@H]1O[C@H](CO)[C@@H](O)[C@H](O)[C@H]1O[C@@H]1O[C@H](CO)[C@@H](O)[C@H](O)[C@H]1O)C3 | -20%
CNC(=O)c1c(I)c(NC(C)=O)c(I)c(C(=O)O)c1I | -1%

Sample 2
SMILES: CN(C)C(=O)Cn1cc(-c2nc(C3(c4ccc(-c5cnc(N)nc5)cc4)CC3)no2)cn1
Tested at: 1 µM
target | test | remaining binding
EGFR (Homo sapiens, UniProt P00533, T790M) | cell-free assay, competition with immobilised ligand | 80%
BMP2K (Homo sapiens, UniProt Q9NSY1) | cell-free assay, competition with immobilised ligand | 99%
MAP3K15 (Homo sapiens, UniProt Q6ZN16) | cell-free assay, competition with immobilised ligand | 100%
Ribosomal protein S6 kinase alpha-4, N-terminal kinase domain (RPS6KA4, Homo sapiens, UniProt O75676) | cell-free assay, competition with immobilised ligand | 91%
AAK1 (Homo sapiens, UniProt Q2M2I8) | binding | 100%
EGFR (Homo sapiens, UniProt P00533, L858R) | cell-free assay, competition with immobilised ligand | 86%
STK10 (Homo sapiens, UniProt O94804) | cell-free assay, competition with immobilised ligand | 100%
Ribosomal protein S6 kinase alpha-6, C-terminal kinase domain (RPS6KA6, Homo sapiens, UniProt Q9UK32) | cell-free assay, competition with immobilised ligand | 100%
MAP3K19 (Homo sapiens, UniProt Q56UN5) | cell-free assay, competition with immobilised ligand | 73%
MAP3K3 (Homo sapiens, UniProt Q99759) | cell-free assay, competition with immobilised ligand | 81%
BMPR1B (Homo sapiens, UniProt O00238) | cell-free assay, competition with immobilised ligand | 99%
AKT2 (Homo sapiens, UniProt P31751) | cell-free assay, competition with immobilised ligand | 100%
PLK1 (Homo sapiens, UniProt P53350) | cell-free assay, competition with immobilised ligand | 82%
ACVR1B (Homo sapiens, UniProt P36896) | cell-free assay, competition with immobilised ligand | 84%
FGFR1 (Homo sapiens, UniProt P11362) | cell-free assay, competition with immobilised ligand | 72%
NEK3 (Homo sapiens, UniProt P51956) | cell-free assay, competition with immobilised ligand | 57%
BMPR2 (Homo sapiens, UniProt Q13873) | cell-free assay, competition with immobilised ligand | 93%
HCK (Homo sapiens, UniProt P08631) | cell-free assay, competition with immobilised ligand | 100%

Sample 3
Target: Non-receptor tyrosine-protein kinase TYK2 (TYK2, Homo sapiens, UniProt P29597)
UniProt P29597, sequence (whole entry, looked up): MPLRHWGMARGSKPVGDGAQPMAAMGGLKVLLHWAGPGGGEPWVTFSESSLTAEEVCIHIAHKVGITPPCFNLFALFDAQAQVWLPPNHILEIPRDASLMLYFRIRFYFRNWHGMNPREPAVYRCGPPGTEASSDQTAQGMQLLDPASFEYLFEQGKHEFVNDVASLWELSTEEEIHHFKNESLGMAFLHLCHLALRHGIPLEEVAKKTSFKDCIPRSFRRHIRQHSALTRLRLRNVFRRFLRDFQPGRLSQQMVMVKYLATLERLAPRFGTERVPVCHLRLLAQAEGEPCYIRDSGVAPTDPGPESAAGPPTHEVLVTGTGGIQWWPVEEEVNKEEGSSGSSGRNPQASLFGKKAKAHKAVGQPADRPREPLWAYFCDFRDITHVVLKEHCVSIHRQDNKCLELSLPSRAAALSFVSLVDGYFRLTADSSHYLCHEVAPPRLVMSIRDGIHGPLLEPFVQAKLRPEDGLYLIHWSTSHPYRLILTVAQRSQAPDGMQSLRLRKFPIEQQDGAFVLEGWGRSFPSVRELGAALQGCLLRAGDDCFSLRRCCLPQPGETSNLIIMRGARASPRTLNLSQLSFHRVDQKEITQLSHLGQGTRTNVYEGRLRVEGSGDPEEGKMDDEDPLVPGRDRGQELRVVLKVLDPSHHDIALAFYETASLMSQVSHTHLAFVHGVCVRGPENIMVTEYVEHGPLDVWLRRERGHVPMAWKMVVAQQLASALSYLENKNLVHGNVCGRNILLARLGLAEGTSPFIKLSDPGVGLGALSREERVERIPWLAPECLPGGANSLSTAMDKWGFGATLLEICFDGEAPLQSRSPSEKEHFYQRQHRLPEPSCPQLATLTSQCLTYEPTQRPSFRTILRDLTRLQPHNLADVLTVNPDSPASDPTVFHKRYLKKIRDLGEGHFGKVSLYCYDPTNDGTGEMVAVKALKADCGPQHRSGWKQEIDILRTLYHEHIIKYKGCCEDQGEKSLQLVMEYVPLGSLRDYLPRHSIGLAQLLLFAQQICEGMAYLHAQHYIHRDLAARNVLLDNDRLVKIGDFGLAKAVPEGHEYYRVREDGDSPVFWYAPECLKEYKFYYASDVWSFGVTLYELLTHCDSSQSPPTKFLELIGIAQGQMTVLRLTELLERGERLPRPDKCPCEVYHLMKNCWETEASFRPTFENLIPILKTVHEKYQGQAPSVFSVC
Effect on: enzyme activity
Action: inhibitor
Tested at: 0.5 µM
Reference: control
Structure (SMILES) | remaining activity [%]
COc1cc2ncnc(Nc3cccc(Cl)c3)c2cc1OC | 98.1
c1ccc(-c2cnc(Nc3ccc(OCCN4CCCC4)cc3)s2)cc1 | 106
Cc1nc2cc3nc(-c4cccs4)cnc3cc2n1C | 102
Ic1cccc(CSc2nnc(-c3ccncc3)o2)c1 | 105
N#Cc1c(NC(=O)c2cccc3ccccc23)sc2c1CCCC2 | 100
Cc1cc2ncc(-c3ccccc3)nc2cc1C | 97.6
Nc1cccc(-c2cc3c(Oc4cccc(O)c4)ncnc3[nH]2)c1 | 36.9
N#C/C(=C\c1ccc(O)c(O)c1)C(=O)NCc1ccccc1 | 97.1
CN([C@@H](Cc1ccc(OS(=O)(=O)c2cccc3cnccc23)cc1)C(=O)N1CCN(c2ccccc2)CC1)S(=O)(=O)c1cccc2cnccc12 | 110
CCN(CC)C(=O)c1ccc(Nc2nc(OCC3CCCCC3)c3[nH]cnc3n2)cc1 | 4.96
COc1cc2c(cc1OC)-c1[nH]nc(Nc3cccc(F)c3)c1C2 | 81.3
c1ccc(-c2[nH]ncc2-c2ccnc3ccccc23)nc1 | 101

Sample 4
Cell line: Huh-7
Tested at: 10 µM
Time: 24 h
Structure (SMILES) | viability
COc1cc2nc(N3CCN(C(=O)C4CCCO4)CC3)nc(N)c2cc1OC (stereo not drawn) | 95.6%
CCCCN1CCCCC1C(=O)Nc1c(C)cccc1C (stereo not drawn) | 99.6%
CC(c1cc2ccccc2s1)N(O)C(N)=O (stereo not drawn) | 98.2%
CCN(CCCc1ccccc1)CCCc1ccccc1 | 96.6%
CCOC(=O)[C@@](C)(N)Cc1ccc(O)c(O)c1 | 96.4%
FC(F)(F)C(Cl)Br (stereo not drawn) | 103%
CCCCC(=O)O[C@H]1CC[C@H]2[C@@H]3CCc4cc(O)ccc4[C@H]3CC[C@]12C | 103%
NS(=O)(=O)c1cc2c(cc1Cl)NCNS2(=O)=O | 99.8%
